Measured values from different studies.
Protocols differ between the studies behind these lines.
Organism: Human alphaherpesvirus 1

With `C=CC1CN(C(=O)NCC=CCSSSCC=CCNC(=O)N2CC(C=C)OC2=S)C(=S)O1` (centres unmarked) the IC50 was 2.87 µM (viral replication; HSV-1).
`Cc1cccc(C=NNC(=N)NO)n1` gave an IC50 of over 100 µM (plaque formation; Vero; 96 h).
`O=c1c(-c2nc3ccccc3s2)cc2c(n1NS(=O)(=O)c1ccc(Cl)cc1)CCCCCC2` has a selectivity index of 3.56 (viral replication, plaque reduction; Vero cells; baseline: CC50 over IC50).
The IC50 of `CC(=O)OC[C@H]1O[C@@H](Sc2sc(C(=O)c3ccc(C)cc3)c(N)c2-c2nc3ccccc3s2)[C@H](OC(C)=O)[C@@H](OC(C)=O)[C@H]1OC(C)=O` is reported as 0.57 µg/mL (plaque formation; HSV-1).
`C=C(C)[C@@H]1CC[C@]2(C(=O)n3ccnc3)CC[C@]3(C)[C@H](CC[C@@H]4[C@@]5(C)CCCNC(C)(C)[C@@H]5CC[C@]43C)[C@@H]12` gave a selectivity index of under 1 (HFF, E-377; baseline: CC50 over EC50).
With `N=C(NO)NN=Cc1ncccc1O` the IC50 was 156 µM (plaque formation; Vero; 96 h).
The IC50 of `Cc1ccc(S(=O)(=O)Nn2c3c(cc(-c4nc5ccccc5s4)c2=O)CCCCCC3)cc1` is reported as 98 µg/mL (viral replication, plaque reduction; Vero cells).
For `C=C(C)[C@@H]1CC[C@]2(C(N)=O)CC[C@]3(C)[C@H](CC[C@@H]4[C@@]5(C)CCCNC(C)(C)[C@@H]5CC[C@]43C)[C@@H]12`, the EC90 was over 6 µM (cytopathic effect; HFF, E-377).

For quick reference, copied from above:
`Cc1cccc(C=NNC(=N)NO)n1` gave an IC50 of over 100 µM (plaque formation; Vero; 96 h).
